Published values collected from several papers.
“And” joins repeats or separate records; there may be more than shown. Numbers after ± are the reported error.

CC(C)n1ncc2c(C(=O)NCC3(C)CNC3)cc(C3CC3)nc21 gave a plasma concentration of 1350 ng/mL and 1100 ng/mL and 1220 ng/mL and 1070 ng/mL (mouse BALB/c female, plasma; intraperitoneal, 50 mg/kg, 4 h).
C[C@H]1O[C@@H](O[C@H]2CC[C@@]3(C)[C@@H](CC[C@]4(C)[C@@H]3C=C[C@]35OC[C@@]6(CCC(C)(C)C[C@H]63)[C@@H](O)C[C@]54C)[C@]2(C)CO)[C@H](O)[C@@H](O[C@@H]2O[C@H](CO)[C@@H](O)[C@H](O)[C@H]2O)[C@H]1O gave a plasma concentration of 0 ng/mL (UHPLC-MS/MS; mouse, plasma; oral, 50 mg/kg, 24 h, pooled samples).
For Cc1c(C(=O)O)ccc2c3n(nc12)[C@@H]1[C@H](C3)N(CC2CC2)[C@@]2(C(=O)Nc3cc(Cl)ccc32)[C@H]1c1cccc(Cl)c1F, the plasma concentration was 1080 nM (female BALB/c nude mouse, SJSA-1 xenograft, plasma; oral, 1 mg/kg twice daily, 4 h).
The plasma concentration of CC(=O)NCc1cc2c(cc1F)C(=O)N(C1CCC(=O)NC1=O)C2 (stereo not drawn) is reported as 3.1 ± 1.2 ng/mL (CD-1 mouse, male; oral, 10 mg/kg parent drug, 4 h).
CC(C)c1cc(C(=O)NCCN)c2cnn(C(C)C)c2n1 gave a plasma concentration of 1670 ng/mL and 2210 ng/mL and 2280 ng/mL (mouse BALB/c female, plasma; intraperitoneal, 50 mg/kg, 0.25 h).
C[C@@H](O)[C@H]1C(=O)N2C(C(=O)O)=C(S[C@@H]3CN[C@H](C(=O)N(C)C)C3)[C@H](C)[C@H]12 has a plasma concentration of 2920 ng/mL (BALB/c mouse, male, plasma; intraperitoneal, dose not given, 8 h, added: combination treatment).
With CCCCCN1C[C@H](O)[C@@H](O)[C@H](O)[C@@H]1CO the plasma concentration was 262 ng/mL (LC-MS/MS; mouse Hexb-/- total, plasma; 30 mg/kg/day, geometric mean).
With c1csc(CNc2cc[nH]n2)c1 the plasma concentration was 24400 nM (mouse, CD-1, male, plasma; oral, 20 mg/kg as HCl salt, 0.5 h).
With O=[N+]([O-])c1ccc(-c2ccc(O)cc2)c2cccnc12 the plasma concentration was 3.31 ng/mL (ICR mouse, male; oral, 5 mg/kg, 2 h).
Cc1cc([C@H]2C[C@H]3[C@@H](C)SC(N)=N[C@@]3(c3ccc(F)cc3F)CO2)on1 has a plasma concentration of 235 nM (male 129/SVE mouse, plasma; subcutaneous, 50 mg/kg, 7 h).
The plasma concentration of c1ccc(-c2nc(N3CCC(c4ccccn4)C3)c3ccccc3n2)nc1 (stereo not drawn) is reported as 3920 ng/mL (mouse, Balb/c female, plasma; oral, 12.5 mg/kg, 2 h, mean, added: aminobenzotriazole pretreatment).
The plasma concentration of Cc1ncsc1-c1ccc(CNC(=O)[C@@H]2C[C@@H](O)CN2C(=O)[C@@H](NC(=O)CCCCCCCCCC(=O)N2CCN(CC[C@H](NC(=O)C3(N)CCN(c4ncnc5[nH]ccc45)CC3)c3ccc(Cl)cc3)CC2)C(C)(C)C)cc1 is reported as > 1000 nM (male Swiss albino mouse, plasma; intraperitoneal, 75 mg/kg single dose, maintained over 12 h).
Cc1cc([C@H]2C[C@H]3[C@@H](CF)SC(N)=N[C@@]3(c3ccc(F)cc3F)CO2)on1 has a plasma concentration of 31 nM (male 129/SVE wild-type mouse, plasma; subcutaneous, 30 mg/kg, 7 h).
For CCN1CCN(Cc2ccc(NC(=O)c3ccc(C)c(NC(=O)c4cncc(-c5cccs5)c4)c3)cc2C(F)(F)F)CC1, the plasma concentration was 47 ng/mL and 32 ng/mL (LC-MS/MS; C57BL/6 mouse, plasma; intraperitoneal, 10 mg/kg single dose, 6 h).
With CNC(=O)c1cc2c(Oc3ccc(NC(=O)C4(C(=O)Nc5ccc(F)cc5)CC4)cc3)ccnc2cc1OC the plasma concentration was 20300 nM (LC-MS/MS; CB.17-SCID mouse, Hs746T xenograft, plasma; oral, 30 mg/kg single dose, 4 h).
For Cc1coc([C@H]2C[C@H]3[C@@H](CF)SC(N)=N[C@@]3(c3ccc(F)cc3F)CO2)n1, the plasma concentration was 2070 nM (male 129/SVE mouse, plasma; subcutaneous, 80 mg/kg, 3 h).
O=C1CCC(N2Cc3cc(CO)c(F)cc3C2=O)C(=O)N1 (stereo not drawn) gave a plasma concentration of 18.2 ± 7.2 ng/mL (CD-1 mouse, male; oral, 10 mg/kg parent drug, 0.33 h).
The plasma concentration of CC(=O)N(C)C1CCN(c2cc(F)cc(NC(=O)c3cc4c(F)ccc(C)c4[nH]3)c2)C1 (stereo not drawn) is reported as 4.34 ng/mL (CD1 mouse, plasma; oral, 50 mg/kg, 7 h).
